{"data": "Measured values collected from several papers", "note": "Each numbered part is a random draw from the data of one study; scales do not carry over between parts. Substitutions count along the parent as printed."}
{"data": "Series 1", "target": "Histone acetyltransferase KAT6A, winged helix 1, GST fusion (KAT6A, Homo sapiens, UniProt Q92794, residues 1-85)", "method": "protein binding microarray", "molecule type": "double-stranded DNA, one strand shown", "medium": "in vitro", "tested at": "not given", "setting": "8-mer, flanks averaged, mean of 2 arrays, mostly near background", "reference": "not given", "direction": "higher = stronger binding", "Construct (chain)": "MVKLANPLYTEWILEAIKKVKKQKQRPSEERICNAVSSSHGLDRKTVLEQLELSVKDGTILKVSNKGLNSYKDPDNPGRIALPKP"}
{"Strand": "ATGAAGGC", "E-score": -0.0669}
{"Strand": "CTTCCGAC", "E-score": 0.107}
{"Strand": "ACTAATCC", "E-score": 0.088}
{"Strand": "ACAACCTA", "E-score": -0.258}
{"Strand": "ACGCTACA", "E-score": -0.0257}
{"Strand": "GATGAAAA", "E-score": -0.0937}
{"Strand": "CGTATCAG", "E-score": 0.105}
{"data": "Series 2", "target": "CCNF, cyclin fold, Cln2 fusion (human)", "method": "yeast growth competition, sequencing", "medium": "yeast", "setting": "strong parent motif", "reference": "not given", "direction": "higher = stronger binding", "starting sequence": "REV3L docking peptide (human); PPVIIKYIIINRF; partner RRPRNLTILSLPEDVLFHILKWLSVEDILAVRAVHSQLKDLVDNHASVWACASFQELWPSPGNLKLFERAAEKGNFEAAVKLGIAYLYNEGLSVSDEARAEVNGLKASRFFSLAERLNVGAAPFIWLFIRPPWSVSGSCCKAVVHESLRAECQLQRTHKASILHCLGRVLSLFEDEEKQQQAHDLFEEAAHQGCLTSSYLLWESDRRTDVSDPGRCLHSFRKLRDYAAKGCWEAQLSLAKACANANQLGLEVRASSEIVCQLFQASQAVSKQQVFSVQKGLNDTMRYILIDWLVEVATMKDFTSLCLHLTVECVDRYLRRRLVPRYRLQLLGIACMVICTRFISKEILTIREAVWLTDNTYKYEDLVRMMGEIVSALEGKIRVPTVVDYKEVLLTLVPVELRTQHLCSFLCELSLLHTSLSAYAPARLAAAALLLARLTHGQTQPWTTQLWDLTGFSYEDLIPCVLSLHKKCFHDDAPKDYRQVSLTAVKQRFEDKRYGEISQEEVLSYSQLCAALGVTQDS"}
{"Variant": "PPVIIKYIIIARF [N11A]", "normalised enrichment score": 1.13}
{"Variant": "PPVIIKAIIINRF [Y7A]", "normalised enrichment score": 1.68}
{"Variant": "PPVIIAYIIINRF [K6A]", "normalised enrichment score": 0.138}
{"Variant": "PPAIIKYIIINRF [V3A]", "normalised enrichment score": 1.59}
{"Variant": "PPVIIKYIIANRF [I10A]", "normalised enrichment score": 1.77}
{"Variant": "PPVIIKYIIINAF [R12A]", "normalised enrichment score": 1.26}
{"data": "Series 3", "Substance": "PhoQ, residues 284 288 289 292 302 303 AGGCYF", "method": "Sort-seq", "measured": "YFP reporter", "medium": "E. coli", "setting": "PhoQ-PhoP variant library", "with": "10 µM Mg2+", "reference": "high Mg2+ state", "direction": "higher = stronger signaling"}
{"target": "PhoP, residues 12 14 15 18 19 NYFRM (Escherichia coli, UniProt P23836)", "fold induction": 13.8}
{"target": "PhoP, residues 12 14 15 18 19 QYFSL (Escherichia coli, UniProt P23836)", "fold induction": 15.5}
{"target": "PhoP, residues 12 14 15 18 19 TQALL (Escherichia coli, UniProt P23836)", "fold induction": 2}
{"data": "Series 4", "target": "Interferon regulatory factor 5, full length, phosphomimetic (IRF5, Homo sapiens, UniProt Q13568-2, residues 1-514, K96S/S451D/S453D/S456D/S462D)", "method": "protein-binding microarray", "molecule type": "double-stranded DNA, one strand shown", "medium": "in vitro", "tested at": "250 nM", "setting": "60-bp whole probe", "with": "salmon DNA 0.4 mg/ml", "reference": "random background probes", "direction": "higher = stronger binding", "shared flanks, not repeated": "GCCTAGCAC … GTGCTAGGTCTTGATTCGCTTGACGCTGCTG"}
{"Strand": "TCATTTTTTGGTTTCTGACT", "log fluorescence [z-score]": 2.25}
{"Strand": "ATTTGTTTCCATTTTCTGAA", "log fluorescence [z-score]": 2.74}
{"Strand": "TTAGGTCTCGTACTGCTTTA", "log fluorescence [z-score]": -0.0627}
{"Strand": "TTAGATTCCAGTTTCGATTC", "log fluorescence [z-score]": 9.5}
{"Strand": "TCATCTTTCACTGCTGCACT", "log fluorescence [z-score]": 3.02}
{"note": "For quick reference, copied from above (series 2):"}
{"Variant": "PPVIIKYIIIARF [N11A]", "normalised enrichment score": 1.13}
{"Variant": "PPAIIKYIIINRF [V3A]", "normalised enrichment score": 1.59}
{"Variant": "PPVIIKAIIINRF [Y7A]", "normalised enrichment score": 1.68}
